Measurements from different studies.
Lines come from different studies, so protocols differ. Several values in a cell are separate wells, animals, samples, runs or records. ± marks the error that the study gave.
Cell line: A549

Compound	assay	setting	IC50
COC(CC1C(C)=CCC2C1(C)CCC1C(C)(C)C(O)C(O)CC12C)C(N)C(=O)O (centres unmarked)	cell growth or viability, CCK-8	72 h	> 10 µM
CCCN1C(=O)CS/C1=N\N=C\c1cccc2cc3ccccc3nc12	cell growth or viability, MTT	48 h	> 50 µM
CNS(=O)(=O)Nc1nccc(Cc2c(C)c3ccc(Oc4ncccc4F)cc3oc2=O)c1F	cell viability	7 days	0.736 µM
CCCc1cc2cc(-n3cc(C)c4c3CC(C)(C)CC4=O)cc(N3CCC(O)CC3)c2c(=O)[nH]1	cell growth or viability, MTS		5.77 µM
O=C(NCCOCCNC(=O)c1cc2ccccc2c2ccccc12)c1cc(C(=O)N2CCNCCNCCNCC2)c(O)c(C(=O)N2CCNCCNCCNCC2)c1	cell growth or viability, MTT	24 h	> 1000 µM
CCCN1C(=O)/C(=C/C(=O)OCC)S/C1=N\N=C\c1cccc2cc3ccccc3nc12	cell growth or viability, MTT	48 h	> 50 µM
COC(OC)c1ccc(-c2ccc(O)cc2)c(C(=C2C=CC(=O)C=C2)c2ccc(O)cc2)c1C#Cc1ccc(O)cc1	cell growth or viability, MTT	48 h	> 50 µM
CCCCCCCCCCCC(=O)Oc1c(C)c(OC)c2c(c1C)OC(=O)[C@@H](CCCCCCCCCC)[C@]2(O)/C=C/c1ccccc1 (relative stereo)	cell growth or viability, SRB	72 h	> 50 µM
CCCC[N+]1=c2cc3c4cc2[O][Mn-2]1(=[C]=O)(=[C]=O)(=[C]=O)[n+]1ccc(cc1)C(=O)OCCOC(=O)c1cc[n+](cc1)[Mn-2](=[C]=O)(=[C]=O)(=[C]=O)([O]3)[N+]=4CCCC	cell growth, MTT	48 h, LED light photolysis 1 h	2.18 ± 0.57 µM
CCCc1cc2cc(-n3nc(N)c4c3CC(C)(C)CC4=O)cc(N3CCC(O)CC3)c2c(=O)[nH]1	cell growth or viability, MTS		> 50 µM
O=[C]=[Mn-2]12(=[C]=O)(=[C]=O)[O]c3cc4c(cc3=[N+]1CCc1ccccc1)[O][Mn-2](=[C]=O)(=[C]=O)(=[C]=O)([N+]=4CCc1ccccc1)[n+]1ccc(cc1)C(=O)OCCOC(=O)c1cc[n+]2cc1	cell growth, MTT	48 h, LED light photolysis 1 h	1.51 ± 0.35 µM
CCCC(=O)[O][Pt]([Cl])([Cl])[O]C(=O)CCC.N.N	cell growth or viability, MTT		4.16 µM
NC(=O)c1ccc(-c2ccccc2Cl)c2c3c([nH]c12)CC[C@@H](N)C3	cell growth or viability		0.0256 µM
Cc1ccc([N+](=O)[O-])cc1S(=O)(=O)N(C)/N=C/c1cnc2ccc(Br)cn12	cell growth or viability		2.66 µM
CCOC(=O)/C=C1\S/C(=N\N=C\c2cccc3cc4ccccc4nc23)N(c2ccc(OC)cc2)C1=O	cell growth or viability, MTT	48 h	> 50 µM
CCCc1cc2cc(-n3nc(C)c4ncccc43)cc(N3CCC(O)CC3)c2c(=O)[nH]1	cell growth or viability, MTS		17.8 µM
CN1CCC(N[C@H]2CCc3[nH]c4c(C(N)=O)ccc(-c5ccccc5Cl)c4c3C2)CC1	cell growth or viability		2.27 µM
COc1c(C)c(OS(=O)(=O)c2ccccc2)c(C)c(OS(=O)(=O)c2ccccc2)c1C(=O)/C=C/c1ccccc1	cell growth or viability, SRB	72 h	> 50 µM

Compound	assay	setting	IC50
CCOC(=O)/C=C1\S/C(=N\N=C\c2cccc3cc4ccccc4nc23)N(CC(C)C)C1=O	cell growth or viability, MTT	48 h	> 50 µM
O=Cc1ccc(-c2ccc(O)cc2)c(C(=C2C=CC(=O)C=C2)c2ccc(O)cc2)c1C#Cc1ccc(O)cc1	cell growth or viability, MTT	48 h	10.6 µM
CCCCCC(=O)Oc1c(C)c(OC)c2c(/C=C/c3ccccc3)c(CCCC)c(=O)oc2c1C	cell growth or viability, SRB	72 h	> 50 µM
c1ccc2c(-c3cn(-c4ccncc4)nn3)c3ccccc3c(-c3cn(-c4ccncc4)nn3)c2c1	cell growth or viability, MTT	24 h	> 20 µM
O=C(O)C(CO)NCc1cc(Cl)c(OCc2cccc(-c3ccccc3)c2Br)cc1OCc1cccnc1 (centres unmarked)	cell growth or viability, MTT		> 10 µM
CC(=O)[O][Pt]([NH2])([NH2])([Cl])([Cl])[O]C(=O)CCC(C)C1CCC2C3CCC4CC(O)CCC4(C)C3CCC12C (centres unmarked)	cell growth or viability, MTT		4.1 µM
CCCc1cc2cc(-n3nc(CC(C)C)c4c3CC(C)(C)CC4=O)cc(N3CCC(O)CC3)c2c(=O)[nH]1	cell growth or viability, MTS		> 50 µM
CC(C)[C@@H]1NC(=O)[C@@H](CCCNC(=N)N)NC(=O)[C@H]([C@@H](C)O)NC(=O)[C@@H](CCCN)NC(=O)[C@H](Cc2ccccc2)NC(=O)[C@@H](Cc2ccc(F)c(F)c2)NC1=O	cell growth or viability, ATP luminescence		71.6 µM
COc1ccccc1/C=C1\C(=O)N(C)c2ccc(N(C)c3nc(C)nc4ccccc34)cc21	cell growth or viability, MTT		5.57 µM
COC1=C(OC)C(O)C(CC=C(C)CCC=C(C)CCC=C(C)C(=O)O)C(C)C1=O (centres unmarked)	cell growth or viability, MTS		6.63 µM and 14.9 µM
CC(C)c1ccc(N(C)c2ccc3c(c2)OCC[C@H]3CNc2cnccc2C(=O)O)cc1	cell growth or viability, ATP luminescence	7 days	0.0324 µM
CC(=O)NCCOCCOCCOCCNC(=O)c1cc(C(=O)N2CCNCCNCCNCC2)c(O)c(C(=O)N2CCNCCNCCNCC2)c1	cell growth or viability, MTT	24 h	> 1000 µM
O=S(=O)(c1ccc2c(c1)OCO2)n1cc(CCCCN2CCC(=C(c3ccc(F)c(F)c3)c3ccc(F)c(F)c3)CC2)nn1	cell growth or viability, ATP luminescence	48 h	5.25 µM
O=C(/C=C/c1ccccc1)Nc1cc(-c2ccnc(N3CCC(CO)CC3)c2)ccn1	cell growth or viability, MTT	72 h	0.228 µM
Cc1nc(Nc2ccc3c(c2)/C(=C/c2c[nH]c4ccccc24)C(=O)N3)c2ccccc2n1	cell growth or viability, MTT		0.95 µM
Cc1sc2c(c1C)C(c1ccc(Cl)cc1)=N[C@@H](CC(=O)NCCN(C)CCCCNC(=O)CCCCOc1cccc3c1C(=O)N([C@H]1CCC(=O)NC1=O)C3=O)c1nnc(C)n1-2	cell growth or viability, CCK-8	72 h	> 10 µM
O=C1C(Cl)=C(Cl)C(=O)c2c(O)ccc(O)c21	cell growth or viability, MTT		14.7 µM

Excerpt of the above:
Compound	assay	setting	IC50
COc1ccccc1/C=C1\C(=O)N(C)c2ccc(N(C)c3nc(C)nc4ccccc34)cc21	cell growth or viability, MTT		5.57 µM
O=S(=O)(c1ccc2c(c1)OCO2)n1cc(CCCCN2CCC(=C(c3ccc(F)c(F)c3)c3ccc(F)c(F)c3)CC2)nn1	cell growth or viability, ATP luminescence	48 h	5.25 µM
CCCc1cc2cc(-n3nc(N)c4c3CC(C)(C)CC4=O)cc(N3CCC(O)CC3)c2c(=O)[nH]1	cell growth or viability, MTS		> 50 µM
